Results of several laboratories.
A part holds a random share of what one study measured.

Series 1
Target: Sal-like protein 4, full length isoform A (SALL4, Homo sapiens, UniProt Q9UJQ4, residues 1-1053)
Chain of UniProt Q9UJQ4 (whole entry, looked up): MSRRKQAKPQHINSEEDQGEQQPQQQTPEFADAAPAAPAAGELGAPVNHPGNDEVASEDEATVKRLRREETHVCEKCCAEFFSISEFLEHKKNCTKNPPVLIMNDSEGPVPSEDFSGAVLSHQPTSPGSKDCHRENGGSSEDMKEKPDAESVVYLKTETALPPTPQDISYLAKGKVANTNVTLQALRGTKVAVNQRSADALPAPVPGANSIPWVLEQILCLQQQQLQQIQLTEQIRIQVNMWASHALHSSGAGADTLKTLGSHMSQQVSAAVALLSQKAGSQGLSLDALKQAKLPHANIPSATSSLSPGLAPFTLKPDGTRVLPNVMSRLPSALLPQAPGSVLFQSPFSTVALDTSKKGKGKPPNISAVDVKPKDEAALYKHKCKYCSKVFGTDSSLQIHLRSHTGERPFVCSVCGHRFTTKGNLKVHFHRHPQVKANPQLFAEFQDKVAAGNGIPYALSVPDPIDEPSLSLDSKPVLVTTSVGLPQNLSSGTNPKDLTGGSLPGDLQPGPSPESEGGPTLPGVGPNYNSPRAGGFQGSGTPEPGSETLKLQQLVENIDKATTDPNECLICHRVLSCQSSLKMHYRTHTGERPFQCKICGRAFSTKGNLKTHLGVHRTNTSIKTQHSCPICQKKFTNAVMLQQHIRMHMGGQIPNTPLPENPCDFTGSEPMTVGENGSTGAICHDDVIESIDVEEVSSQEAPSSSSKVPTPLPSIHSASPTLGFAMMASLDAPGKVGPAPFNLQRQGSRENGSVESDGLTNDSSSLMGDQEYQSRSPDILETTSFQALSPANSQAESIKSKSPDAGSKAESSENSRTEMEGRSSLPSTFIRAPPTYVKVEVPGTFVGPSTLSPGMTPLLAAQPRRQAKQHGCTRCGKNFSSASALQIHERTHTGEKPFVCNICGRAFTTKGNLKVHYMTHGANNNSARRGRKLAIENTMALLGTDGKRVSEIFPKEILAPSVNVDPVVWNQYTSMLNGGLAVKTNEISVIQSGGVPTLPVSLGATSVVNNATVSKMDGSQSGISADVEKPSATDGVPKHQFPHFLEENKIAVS
Technique: universal PBM
Molecule type: double-stranded DNA, one strand shown
Sample: in vitro
Concentration: 600 nM
Notes: 8-mer, flanks averaged, mean of replicates
Direction: higher = stronger binding
`CATCGTCG` has an E-score of -0.166.
With `GCCGGTCA` the E-score was -0.287.
`ACTTTACT` gave an E-score of 0.166.
`AGAGCGGA` gave an E-score of 0.0305.
`CATCCGTA` gave an E-score of -0.000595.
With `GTGGACAC` the E-score was -0.132.
The E-score of `TCCAAGCA` is reported as -0.0141.
`CCCCTTAA` has an E-score of -0.0162.
`ACCACCCT` gave an E-score of -0.257.
With `CGCGAGAC` the E-score was -0.114.
For `CTATGCCA`, the E-score was 0.1.

Series 2
Target: Histone acetyltransferase KAT6A, both winged helices, GST fusion (KAT6A, Homo sapiens, UniProt Q92794, residues 1-181)
Technique: protein binding microarray
Molecule type: double-stranded DNA, one strand shown
Sample: in vitro
Concentration: not given
Notes: 8-mer, flanks averaged, mean of 2 arrays, mostly near background
Baseline: not given
Direction: higher = stronger binding
Residues (chain): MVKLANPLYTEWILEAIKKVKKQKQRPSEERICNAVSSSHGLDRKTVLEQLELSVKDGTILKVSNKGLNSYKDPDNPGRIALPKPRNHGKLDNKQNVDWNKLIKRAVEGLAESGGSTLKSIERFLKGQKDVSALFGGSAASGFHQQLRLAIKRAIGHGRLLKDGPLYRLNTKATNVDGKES
`TCATATAA` has an E-score of -0.0231.
The E-score of `ATGTTGTC` is reported as 0.0342.
With `ACAAGGAC` the E-score was -0.165.
`CATCGAGC` gave an E-score of 0.0809.
The E-score of `ATGTGCTG` is reported as -0.0985.
`ATCTCCGC` has an E-score of 0.0757.
The E-score of `GGCCACAA` is reported as -0.0229.
With `AGGGTCTC` the E-score was -0.177.
For `GTGCCCAC`, the E-score was -0.0162.

Series 3
Target: Myc proto-oncogene protein, bHLH-zipper, MAX partner unstated (MYC, Homo sapiens, UniProt P01106, residues 368-449)
Chain of UniProt P01106 (368-449, looked up): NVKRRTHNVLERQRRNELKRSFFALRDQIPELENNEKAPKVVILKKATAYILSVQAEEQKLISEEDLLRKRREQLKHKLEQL
Technique: protein-binding microarray
Molecule type: double-stranded DNA, one strand shown
Sample: in vitro
Concentration: not given
Notes: k-mer, scored over probes, only values ≥0.25
Direction: higher = stronger binding
The E-score of `ACACGATG` is reported as 0.379.
The E-score of `CGCGGGTA` is reported as 0.26.
`CATGGGGC` gave an E-score of 0.388.
`ACGCCTCC` gave an E-score of 0.264.
With `ATACATGC` the E-score was 0.305.
For `CAACGCAC`, the E-score was 0.268.

Other studies, line by line
For `PhoQ, residues 284 288 289 292 302 303 ASSHFY`, the fold induction was 19.7 (PhoP, residues 12 14 15 18 19 LYFRQ (Escherichia coli, UniProt P23836); Sort-seq, measured: YFP reporter; E. coli; PhoQ-PhoP variant library, with: 10 µM Mg2+; baseline: high Mg2+ state, higher = stronger signaling).

A few entries again (series 2):
With `ACAAGGAC` the E-score was -0.165.
The E-score of `ATGTTGTC` is reported as 0.0342.
